Measured values from different studies.
Parts stem from different laboratories: compare values within a part only.

Study 1 — technique: RNA Bind-n-Seq; molecule type: RNA; medium: in vitro; tested at: 365 nM; relative to: no-protein control; direction: higher = stronger binding
Target: RNA binding protein fox-1 homolog 2, RRM domain, GST-SBP tag (RBFOX2, Homo sapiens, UniProt O43251-10, residues 100-194)
Notes: natural RNA segment, single round, ends assumed
Shared flanks, not repeated: GGGAGUUCUACAGUCCGACGAUC … UGGAAUUCUCGGGUGCCAA
Target sequence (chain): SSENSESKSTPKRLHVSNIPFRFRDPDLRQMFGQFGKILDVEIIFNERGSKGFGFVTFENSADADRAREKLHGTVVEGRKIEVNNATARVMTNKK
Sequence	RBNS enrichment (R)
CAUGCACAUUGCUUUGGAGUCAGUAUUCAGCUGUAAGUGUAGUAUUGUUUUAUGGCUGAAAUAGAAAGCUAAUGAAGAGGCCUACCUGGAUCCAGAUUUUAUGUUAACAU	1.8
CACCUGGACCAUUUGAUUGUUUUAUUUUGGAAUUGGUGUAUAUCAUGAAGCCUUGCUGAACUAAGUUUUGUGUGUAUAUAUUUAAAAAAAAAAUCAGUGUUUAAAUAAAG	0.442
AAAAAAACUAAUUGUGAUUUCUAGUCUUGCAAAGCUGUAUGCAGUUAGAUGAUGUGACCUCUAAUAUUUAUCUAAUAAAUAUGUAUUCAGAUGAAACCUGUAUAUUAGGU	0.394
GGACCUUUGGAUAAGAAACCAGUGUUCUUAACUGCUGAGCCAUCUCUCCAGUUAGCUAACUGGAUUCUUAAGGAUGAUUCUAGCAAAUUAUAAGAAUAAAUAGUAAAAAG	0.349
AGUAGUUGUUGGAGACCUGGUAGUGGGAAGGAUGUUAUGGGUCACUGGAAAGUGGCCAGUCUUCACAGCAUCCUUUCAUCUUUUCCUCUUCCACAAAAUCAGUGUCCUGU	0.359
GGGUCCGGGAUUGGGAAUCCGCCCAUCUGGGGGCCUCUUCUGCUUUCUCGGGAAUUUUCAUCUAGGAUUUUAAGGGAAGGGGAAGGAUAGGGUGAUGUUCCGAAGGUGAG	0.728
GCUUGAAUUUUAACCAUUUAUUACAUAAUCUCUAGUGAUCAUGCAUCUAGUUAUCAUAAGAAAUAAUUUAAAAGGUUUUGUUGCUGAAAGCAGUAAGUGGUGCAGUAAAA	0.914
AGUAAGAAAUGACAAACUGCUUUGUUUCAUUUCAUAAACAAACUCUGCAUUUAGAUAACUAUUAAAGGUUGUUAAGAUGAAGAUUUACUGUUUCUUUGUUACUCGUUGGU	0.298
CAAGUGCCCCCUCACCUCUCCAGGUGCUCAUUGUAACCAUUUCUCACUAGUGUCAGGCCCCCAGUGGGACCACAUGCCACUGCCUGCACCUUUCGGCAGAGGAACCCCCA	0.704
ACACUGUAUACUUGUUUCUCUCCAAAGCGAAAUUAAGUAUUUAUAAUUUCAAUUGCCUCGAUAAGUUUCCAAGUCACUGAAAUCUGCUGAAGGUUUUACUGUAUUGUUGC	0.592
CCCCUCCUCAUCCUGCACCCCUUCCAUCCCACCUUCCCUUUCAAUAAACAGCUGGGAUGGAUACUGACUUUGUUUCCUUUCUCCCUGGCCACUGGGGCGUGGGGAGGAGA	0.58
AGCCGGCCCCAGGUGCUCCCCUGACAGUCCCUCCUCUCCGGAGCAUUUUGAUACCAGAAGGGAAAGCUUCAUUCUCCUUGUUGUUGGUUGUUUUUUCCUUUGCUCUUUCC	0.494

Study 2 — target: Sox-I, HMG box (Salpingoeca helianthica); technique: Spec-seq; molecule type: double-stranded DNA, one strand shown; medium: in vitro; tested at: not given; notes: whole probe, mean of replicates; relative to: not given; direction: lower = stronger binding; shared flanks, not repeated: GAGTCGTCTCGTCAGCAC … CCGTAGAGCACTCAGGTC
Residues (chain): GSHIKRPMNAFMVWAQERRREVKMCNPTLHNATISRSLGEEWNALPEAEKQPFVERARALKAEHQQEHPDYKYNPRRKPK
Sequence	relative binding energy [ln ratio]
CATTCGA	1.23
CTACGTT	0.845
CATAAAC	0.146
TAACGTT	0.677
GCATGTT	0.549
CATCCAG	1.09
CATTCGT	0.938
TCGTGTT	0.347
AGTTGTT	-0.994
CATTTTA	0.668
CATTTAG	0.793
CATGACA	0.512
CATCCTA	0.614
CATCGAT	1
TAGAGTT	0.45
CATAGCG	0.355
CATGAAA	0.825
ACGGGTT	0.326
TATTGTT	-2.79
TATAGTT	-0.618
CACGGTT	0.724
TGTGGTT	0.575
CTGTGTT	-0.103
ACTGGTT	-0.208
CATGCCT	1.01

Study 3 — technique: universal PBM; molecule type: double-stranded DNA, one strand shown; medium: in vitro; tested at: 600 nM; direction: higher = stronger binding
Target: Sal-like protein 4, full length isoform A (SALL4, Homo sapiens, UniProt Q9UJQ4, residues 1-1053)
Sequence of UniProt Q9UJQ4 (whole entry, looked up): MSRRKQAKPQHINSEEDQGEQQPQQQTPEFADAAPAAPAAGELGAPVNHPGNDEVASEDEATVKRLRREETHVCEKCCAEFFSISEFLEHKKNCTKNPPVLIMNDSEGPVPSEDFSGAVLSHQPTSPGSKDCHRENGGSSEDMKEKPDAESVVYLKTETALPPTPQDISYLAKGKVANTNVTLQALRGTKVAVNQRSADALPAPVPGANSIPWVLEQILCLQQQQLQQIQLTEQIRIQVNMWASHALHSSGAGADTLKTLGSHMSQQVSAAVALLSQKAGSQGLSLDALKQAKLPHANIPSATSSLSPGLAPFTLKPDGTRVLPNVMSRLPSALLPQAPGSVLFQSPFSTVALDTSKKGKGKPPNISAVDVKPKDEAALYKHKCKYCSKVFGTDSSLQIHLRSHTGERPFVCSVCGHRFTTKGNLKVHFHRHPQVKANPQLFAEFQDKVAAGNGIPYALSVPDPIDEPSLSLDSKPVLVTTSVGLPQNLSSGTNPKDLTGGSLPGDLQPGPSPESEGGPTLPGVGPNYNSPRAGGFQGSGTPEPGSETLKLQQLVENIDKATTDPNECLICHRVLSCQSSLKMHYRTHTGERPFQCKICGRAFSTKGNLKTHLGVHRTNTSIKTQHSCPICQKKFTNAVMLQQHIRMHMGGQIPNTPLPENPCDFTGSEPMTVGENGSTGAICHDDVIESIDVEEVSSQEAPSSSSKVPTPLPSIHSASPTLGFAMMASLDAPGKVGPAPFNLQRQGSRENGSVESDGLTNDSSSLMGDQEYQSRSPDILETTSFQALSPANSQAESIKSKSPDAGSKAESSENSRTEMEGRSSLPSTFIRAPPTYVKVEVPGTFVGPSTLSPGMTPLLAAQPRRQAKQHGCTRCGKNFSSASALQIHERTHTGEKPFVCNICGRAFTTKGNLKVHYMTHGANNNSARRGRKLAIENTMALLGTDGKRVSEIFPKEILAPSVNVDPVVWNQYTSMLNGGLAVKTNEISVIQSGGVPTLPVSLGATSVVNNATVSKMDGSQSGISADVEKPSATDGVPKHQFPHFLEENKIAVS
Notes: 8-mer, flanks averaged, mean of replicates
Sequence	E-score
ATAGGCAT	0.151
TTAACCAA	0.151
CATCATTA	0.291
CCGTAAGG	-0.191
ACCCGGAT	-0.316
ACCGTCCA	-0.162
CGGTAAGC	-0.136
AATGGCAA	0.208
ATTGCCAA	0.0573
CCCAGGTA	-0.0759
ATACTTGC	0.198
CAGGGGAG	-0.249
CCATACAC	-0.0351
CGACTTCA	-0.0537
GTAAATCA	0.219
AGTTAAAA	0.284
CGCCACGA	-0.0126
ATGACAGC	0.0425
ACCGCTAT	-0.0575
GACGTTAA	0.182
AATCCGGG	-0.222
CGTTGTCC	-0.0392
TCCTGACA	0.0986
GTCGCGTA	-0.0717
CCGGCATC	-0.279

Study 4 — technique: RNA Bind-n-Seq; molecule type: RNA; medium: in vitro; tested at: 200 nM; notes: whole 134-nt RNA, ends assumed; added: 150 mM KCl; relative to: input library; direction: higher = stronger binding
Target: Fragile X messenger ribonucleoprotein 1, C-terminal low-complexity region (Fmr1, Mus musculus, UniProt P35922)
Shared flanks, not repeated: GGGAGUUCUACAGUCCGACGAUC … UGGAAUUCUCGGGUGUCAAGG
Sequence	log2 enrichment
AGUCCUGUGCUACACAUCGUAUGUACCGAAUCGGGUUUUUUUGGGUUUGGGAAAGGGAAAGUAUUAUGUUACGCCGUUCGGAUCUGCACU	0.163
GCAGGAAGUAAAAACAAAUGGAAAUGCUUCGGAUAGUGGCAGGGGUGGGGGUUGCUAAGGAAAGGGUGGGAUGAGAGUGGGUAAAGAGUU	0.114
UGGGAGUUGGAUUUUGUUUAUUUUUUUAGCUCAUUUCCAGGGGUGGGAAUUUUUUUUUAAUAUGUGUCAUGAAUAAAGUUGUUUUUGAAA	-0.723
ACCAUGCAGGUGGGCAUCUUUGGGAAGUGGGGCAAGGGGGGGAUAGGGAGGGGGGUAACACUUUGGGAACAGGUGGUCCCAAAUCGUUUC	0.729
UCCUCAAGUCCUGUGCUACACAUCGUAUGUACCGAAUCGGGGUGGUGGGUGGAAAGUAUUAUGUUACGCCGUUCGGAUCUGCACUUCCAG	0.677
CAAGUCCUGUGCUACACAUCGUAUGUACCGAAUCGGCCCCGGCCCCGGGCCCCGGAAAGUAUUAUGUUACGCCGUUCGGAUCUGCACUUC	-0.44
CCUGUGCUACACAUCGUAUGUACCGAAUCGGGGAAAAAAAGGGGAAAAAAAGGGGUGGGGAAAGUAUUAUGUUACGCCGUUCGGAUCUGC	0.293
AAGUCCUGUGCUACACAUCGUAUGUACCGAAUCGGGAAAAAGGGUUUGGGAAAGGGAAAGUAUUAUGUUACGCCGUUCGGAUCUGCACUU	0.172
AAGUCCUGUGCUACACAUCGUAUGUACCGAAUCGGUUUGGAAAAAAAGGAAAAAGGAAAGUAUUAUGUUACGCCGUUCGGAUCUGCACUU	-0.898
UCCUGUGCUACACAUCGUAUGUACCGAAUCAAACCCAAAUUUUUUUAAAUUUUUUUAAAAAAGUAUUAUGUUACGCCGUUCGGAUCUGCA	0.385
CCUGUGCUACACAUCGUAUGUACCGAAUCGGGGUUUGGGGUUUUUGGGGAAAAAAAGGGGAAAGUAUUAUGUUACGCCGUUCGGAUCUGC	0.427
AAGUCCUGUGCUACACAUCGUAUGUACCGAAUCGGGGCCCCGGCCCCGGGCCCCGGGAAAGUAUUAUGUUACGCCGUUCGGAUCUGCACU	-0.619
AAGUCCUGUGCUACACAUCGUAUGUACCGAAUCGGGGUUUGGGGUGGGGUUUGGGGAAAGUAUUAUGUUACGCCGUUCGGAUCUGCACUU	0.857
UUGUGGUAUUUUAUUUACUUAUUUUUUUAAAUCUUCCAUUACAGCCAUGCCUUUCUUGGACAUCCAGAAAAGGUUCGGCCUUAACAUAGA	-0.0435

Some of these lines once more (study 2):
Sequence	relative binding energy [ln ratio]
TATTGTT	-2.79
TAACGTT	0.677
CATTTAG	0.793
CATTCGT	0.938
TCGTGTT	0.347
CATTCGA	1.23
CATAAAC	0.146
TGTGGTT	0.575
CACGGTT	0.724
